Earlier results, collected from citations in different studies.
Protocols differ between the studies behind these lines. ± marks the error that the study gave. No end group written: not given here.

`N[C@@H](CC(=O)O)C(=O)O` has a Kd of 60 to 160 µM (Escherichia coli L-asparaginase).
For `Nc1nc2c(nc(Sc3ccc(Cl)cc3)n2C2OC3COP(O)(=S)OC3C2O)c(=O)[nH]1` (centres unmarked), “Km or Ki” read 38.6 µM (PDE10; cyclic nucleotide hydrolysis, substrate or inhibitor, isothermal titration calorimetry).
`Oc1cccc(-c2nc(N3CCOCC3)c3oc4ncccc4c3n2)c1` gave an IC50 of greater than 100 µM (phosphatidylinositol 4-phosphate 5-kinase type I beta; enzyme activity, inhibitor; with: 10 µM ATP).
For `O=C(Nc1n[nH]c2cc(-c3cccc(NS(=O)(=O)c4ccccc4F)c3)ccc12)C1CC1`, the remaining binding was 55 to 60% (CDKL2 (human); DiscoverX scanMAX; 1 µM; baseline: control).
Under “EC50 relative to Ca2+”, `[Sr+2]` is recorded as 161 (BK channel (rat); channel activation, activator; skeletal muscle T-tubule in lipid bilayer; baseline: Ca2+).
For `O=c1[nH]c(=O)c2[nH]c(=O)c(=O)n(C[C@H](O)[C@H](O)[C@H](O)CO)c2[nH]1`, the kcat was 2.6 ± 0.1 min⁻¹ (Bacillus subtilis lumazine synthase; enzyme kinetics; recombinant β60 capsid; pH 7.0, with: substrate 2 fixed, 1 varied).
For `Cc1ccc([N+](=O)[O-])cc1S(=O)(=O)N(C)/N=C/c1cnc2ccc(Br)cn12`, the IC50 was 21 µM (ATR; kinase activity, inhibitor; with: 10 µM ATP).
The EC50 of `C[C@]12CCC[C@@H]1[C@H]1CCc3cc(O)ccc3[C@@H]1CC2` (single isomer, unassigned) is reported as 25.3 nM (oestrogen receptor alpha; binding, competition binding).
`Cc1cc([C@H](C)Nc2ccccc2)c2oc(N3CCOCC3)cc(=O)c2c1` gave an IC50 of greater than 100 µM (phosphatidylinositol 4-phosphate 5-kinase type I beta; enzyme activity, inhibitor; with: 10 µM ATP).
For `NS(=O)(=O)OC[C@@H]1C[C@@H](n2ccc3c(N[C@H]4CCc5ccccc54)ncnc32)C[C@@H]1O`, “pharmacodynamic active dose” read no less than 25 mg/m² (NEDD8-activating enzyme; human patients; dose not given, single agent).
For `YRAL`, the melting temperature was 71 °C (HLA-DR1, human; circular dichroism; peptide; peptide-MHC complex).
For `C[C@]12CC[C@@H]3c4ccc(O)cc4CC[C@H]3[C@@H]1CC1(CCCC1)C2=O`, the EC50 was 127 nM (oestrogen receptor alpha; binding, competition binding).
With `O=C1c2cccc3c2[C@H](CCC3)CN1[C@@H]1CN2CCC1CC2` the AUC(0-inf) was 85.6 ng·h/mL (patients, plasma; oral, dose not given, netupitant-palonosetron combination, with: docetaxel 75 to 100 mg/m^2 IV).
`Cc1cc(C(C)Nc2ccccc2)c2oc(-c3ccncc3)cc(=O)c2c1` (centres unmarked) gave an IC50 of greater than 100 µM (PI4KIIIα; enzyme activity, inhibitor; with: 10 µM ATP).
`Cc1c(O)c(C23CC4CC(CC(C4)C2)C3)cc2c1CC[C@@H]1[C@@H]2CC[C@]2(C)C(=O)CC[C@@H]12` gave an EC50 of greater than 10000 nM (oestrogen receptor alpha; binding, competition binding).
Under “duration of full inhibition”, `COc1cc2c(cc1OC)CN(CCc1ccc(NC(=O)c3cc(OC)c(OC)cc3NC(=O)c3cnc4ccccc4c3)cc1)CC2` is recorded as greater than 24 h (P-glycoprotein; rhodamine-123 efflux, inhibitor; peripheral lymphocytes; concentration not given).
The potency increase of `KCNTATCATQRLANFLVHSSNNFGAILSSTNVGSNTY (amylin (human); not fully specified (C-terminus, bridges); cysteine pairing not given here; sequence looked up)` is reported as 11 fold (calcitonin receptor with RAMP1, human; peptide; baseline: calcitonin receptor alone).
Under inhibition, `N=C(N)c1ccc2cc(OC(=O)c3ccc(N=C(N)N)cc3)ccc2c1` is recorded as “inhibited” (acid-sensing ion channel; ion current; concentration not given, reported in literature).
With `O=P(O)(O)OC[C@H]1O[C@H](OP(=O)(O)OP(=O)(O)O)[C@H](O)[C@@H]1O` the kcat was 1380 min⁻¹ (HGPRT Trypanosoma cruzi isoform A; substrate, item: IMP; 20 to 215 µM, with: hypoxanthine 60 µM).
`Ivermectin`: activity “active” (human FXR alpha; antagonist, Tox21 qHTS; concentration not given).
For `COc1cc2c(cc1OC)CN(CCc1ccc(NC(=O)c3cc(OC)c(OC)cc3NC(=O)c3cnc4ccccc4c3)cc1)CC2`, the brain distribution was 1.25 fold (human P-glycoprotein; PET, item: (R)-[11C]verapamil; healthy human; 2 mg/kg; baseline: baseline scan).
The potency increase of `Cc1nc2ccc(CN(C)c3ccc(C(=O)N[C@@H](CCC(=O)O)C(=O)O)s3)cc2c(=O)[nH]1` is reported as 60 fold (thymidylate synthase; enzyme activity, inhibitor; baseline: polyglutamate over monoglutamate).
The selectivity ratio of `COCCOC(=O)C1=C(C)NC(C)=C(C(=O)OC(C)C)C1c1cccc([N+](=O)[O-])c1` (centres unmarked) is reported as greater than 200 fold (human KCa3.1; baseline: KCa3.1 IC50 over CaV1.x IC50).
`Cc1csc(N(C)C(=O)CSc2ccc(-c3ccccc3)nn2)n1` gave an inhibition of no more than 50% (off-target panel; 10 µM).
`O=c1c2nc(Br)n([C@@H]3O[C@@H]4COP(=O)(O)O[C@H]4[C@H]3O)c2nc2[nH]c(-c3ccccc3)cn12` — result for “Km or Ki”: 34.4 µM (PDE10; cyclic nucleotide hydrolysis, substrate or inhibitor, isothermal titration calorimetry).
`Yeast DNA polymerase alpha` — result for “salt concentration at loss of association”: 300 mM (replisome (yeast); Ctf4-dependent association; yeast cells).
`C[C@]12CC[C@@H]3c4cc(C56CC7CC(CC(C7)C5)C6)c(O)cc4CC[C@H]3[C@@H]1CC[C@@H]2O` gave an EC50 of greater than 10000 nM (oestrogen receptor alpha; binding, competition binding).
`COc1cc2c(c(OC)c1OC)-c1ccc(OC)c(=O)cc1[C@@H](NC(C)=O)CC2`: activity call “inactive” (human FXR alpha; antagonist, Tox21 qHTS or literature; concentration not given).
With `C[C@]12CC=C3c4ccc(O)cc4CC[C@H]3[C@@H]1CC[C@@H]2O` the EC50 was 4.06 nM (oestrogen receptor beta; binding, competition binding).
The inhibition of `CCCS(=O)(=O)Nc1ccc(F)c(C(=O)c2c[nH]c3ncc(-c4ccc(Cl)cc4)cc23)c1F` is reported as roughly 96% (RIPK2; kinase activity, inhibitor; 10 µM).
For `O=S(=O)(O)c1cc(N=C=S)ccc1C=Cc1ccc(N=C=S)cc1S(=O)(=O)O`, the Ki was 30 nM (band 3 anion exchanger (SLC4A1), human; chloride transport, reversible inhibitor; human erythrocytes; 0 °C).
For `Cc1[nH]nc(C(F)(F)F)c1Cc1sc2c(c1C(=O)N1C[C@](C)(O)CO1)c(=O)n(C)c(=O)n2C(C)C`, “time to full recovery of uptake” read 12 h (MCT1; L-lactate uptake, inhibitor; 4T1; concentration not given, after drug washout).
`CC(=O)O[C@@H]1CC[C@@]2(C)[C@H](CC[C@@H]3[C@@H]2CC[C@]2(C)[C@@H]([C@H](C)CCC(=O)O)CC[C@@H]32)C1` has a transcriptional activity of 30 fold (vitamin D receptor; reporter gene, agonist; concentration not given; baseline: lithocholic acid).
With `C[C@]12CC[C@@H]3c4ccc(O)cc4CC[C@H]3[C@@H]1CC[C@@H]2OC(=O)c1ccccc1` the EC50 was 26.9 nM (oestrogen receptor alpha; binding, competition binding).
For `COc1ccc2c(c1OC)N=C(NC(=O)c1cccnc1)N1CCN=C21`, the IC50 was 15 µM (ATR; kinase activity, inhibitor; with: 10 µM ATP).

Some of these lines once more:
For `NS(=O)(=O)OC[C@@H]1C[C@@H](n2ccc3c(N[C@H]4CCc5ccccc54)ncnc32)C[C@@H]1O`, “pharmacodynamic active dose” read no less than 25 mg/m² (NEDD8-activating enzyme; human patients; dose not given, single agent).
The inhibition of `CCCS(=O)(=O)Nc1ccc(F)c(C(=O)c2c[nH]c3ncc(-c4ccc(Cl)cc4)cc23)c1F` is reported as roughly 96% (RIPK2; kinase activity, inhibitor; 10 µM).
Under “duration of full inhibition”, `COc1cc2c(cc1OC)CN(CCc1ccc(NC(=O)c3cc(OC)c(OC)cc3NC(=O)c3cnc4ccccc4c3)cc1)CC2` is recorded as greater than 24 h (P-glycoprotein; rhodamine-123 efflux, inhibitor; peripheral lymphocytes; concentration not given).
